Measured values gathered from unrelated publications.
Numbers after ± are the reported error.
ALB: Albumin (ALB, Bos taurus, UniProt P02769)

The chains behind the UniProt entries cited, without tags or fusion partners. Residues count along the entry.
UniProt P02769, 25-607 limits assumed: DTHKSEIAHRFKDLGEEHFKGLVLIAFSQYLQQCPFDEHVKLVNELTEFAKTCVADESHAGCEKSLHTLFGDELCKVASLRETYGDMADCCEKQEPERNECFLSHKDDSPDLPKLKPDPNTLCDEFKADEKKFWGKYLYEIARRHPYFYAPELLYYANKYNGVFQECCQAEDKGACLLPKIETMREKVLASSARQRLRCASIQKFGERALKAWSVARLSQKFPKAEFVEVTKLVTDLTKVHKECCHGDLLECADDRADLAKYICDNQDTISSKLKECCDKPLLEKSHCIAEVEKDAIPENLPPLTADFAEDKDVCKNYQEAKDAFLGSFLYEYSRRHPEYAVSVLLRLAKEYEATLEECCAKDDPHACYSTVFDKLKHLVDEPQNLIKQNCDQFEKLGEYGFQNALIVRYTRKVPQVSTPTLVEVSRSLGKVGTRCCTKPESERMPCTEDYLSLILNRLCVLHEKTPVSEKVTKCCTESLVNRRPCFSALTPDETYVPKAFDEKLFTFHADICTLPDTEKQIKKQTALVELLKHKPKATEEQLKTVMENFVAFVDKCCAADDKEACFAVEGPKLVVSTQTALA
UniProt Q12809, whole entry: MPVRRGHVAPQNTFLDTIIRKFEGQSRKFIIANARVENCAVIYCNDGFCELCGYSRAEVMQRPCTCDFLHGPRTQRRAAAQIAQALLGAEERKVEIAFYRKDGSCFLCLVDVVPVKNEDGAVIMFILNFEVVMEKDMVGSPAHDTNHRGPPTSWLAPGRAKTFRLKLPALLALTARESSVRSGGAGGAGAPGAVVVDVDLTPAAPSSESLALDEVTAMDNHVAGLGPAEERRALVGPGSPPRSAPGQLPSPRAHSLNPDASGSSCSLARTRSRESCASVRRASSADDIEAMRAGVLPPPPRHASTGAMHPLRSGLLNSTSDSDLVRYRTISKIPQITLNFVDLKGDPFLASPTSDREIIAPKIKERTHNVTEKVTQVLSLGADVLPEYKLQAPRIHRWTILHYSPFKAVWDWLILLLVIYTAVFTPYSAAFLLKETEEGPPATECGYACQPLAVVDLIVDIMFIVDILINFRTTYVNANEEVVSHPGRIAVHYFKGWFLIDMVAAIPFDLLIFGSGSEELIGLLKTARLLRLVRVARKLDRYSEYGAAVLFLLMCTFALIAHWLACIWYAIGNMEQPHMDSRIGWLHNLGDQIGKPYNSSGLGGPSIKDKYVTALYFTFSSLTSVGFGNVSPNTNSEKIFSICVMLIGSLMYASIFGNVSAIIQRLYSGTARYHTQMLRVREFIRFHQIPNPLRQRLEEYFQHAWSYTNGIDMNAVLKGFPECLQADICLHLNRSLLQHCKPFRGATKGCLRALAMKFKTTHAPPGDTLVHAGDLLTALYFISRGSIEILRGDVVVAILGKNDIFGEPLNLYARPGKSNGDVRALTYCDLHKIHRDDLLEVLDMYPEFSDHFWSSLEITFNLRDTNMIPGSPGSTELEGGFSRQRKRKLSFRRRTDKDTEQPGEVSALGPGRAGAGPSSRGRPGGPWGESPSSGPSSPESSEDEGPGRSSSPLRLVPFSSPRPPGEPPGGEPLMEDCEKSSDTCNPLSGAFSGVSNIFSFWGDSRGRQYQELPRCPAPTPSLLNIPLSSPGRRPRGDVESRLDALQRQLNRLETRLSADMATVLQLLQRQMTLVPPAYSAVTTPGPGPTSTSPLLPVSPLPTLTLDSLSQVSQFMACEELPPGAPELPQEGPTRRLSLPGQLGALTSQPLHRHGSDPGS
UniProt P08183, whole entry: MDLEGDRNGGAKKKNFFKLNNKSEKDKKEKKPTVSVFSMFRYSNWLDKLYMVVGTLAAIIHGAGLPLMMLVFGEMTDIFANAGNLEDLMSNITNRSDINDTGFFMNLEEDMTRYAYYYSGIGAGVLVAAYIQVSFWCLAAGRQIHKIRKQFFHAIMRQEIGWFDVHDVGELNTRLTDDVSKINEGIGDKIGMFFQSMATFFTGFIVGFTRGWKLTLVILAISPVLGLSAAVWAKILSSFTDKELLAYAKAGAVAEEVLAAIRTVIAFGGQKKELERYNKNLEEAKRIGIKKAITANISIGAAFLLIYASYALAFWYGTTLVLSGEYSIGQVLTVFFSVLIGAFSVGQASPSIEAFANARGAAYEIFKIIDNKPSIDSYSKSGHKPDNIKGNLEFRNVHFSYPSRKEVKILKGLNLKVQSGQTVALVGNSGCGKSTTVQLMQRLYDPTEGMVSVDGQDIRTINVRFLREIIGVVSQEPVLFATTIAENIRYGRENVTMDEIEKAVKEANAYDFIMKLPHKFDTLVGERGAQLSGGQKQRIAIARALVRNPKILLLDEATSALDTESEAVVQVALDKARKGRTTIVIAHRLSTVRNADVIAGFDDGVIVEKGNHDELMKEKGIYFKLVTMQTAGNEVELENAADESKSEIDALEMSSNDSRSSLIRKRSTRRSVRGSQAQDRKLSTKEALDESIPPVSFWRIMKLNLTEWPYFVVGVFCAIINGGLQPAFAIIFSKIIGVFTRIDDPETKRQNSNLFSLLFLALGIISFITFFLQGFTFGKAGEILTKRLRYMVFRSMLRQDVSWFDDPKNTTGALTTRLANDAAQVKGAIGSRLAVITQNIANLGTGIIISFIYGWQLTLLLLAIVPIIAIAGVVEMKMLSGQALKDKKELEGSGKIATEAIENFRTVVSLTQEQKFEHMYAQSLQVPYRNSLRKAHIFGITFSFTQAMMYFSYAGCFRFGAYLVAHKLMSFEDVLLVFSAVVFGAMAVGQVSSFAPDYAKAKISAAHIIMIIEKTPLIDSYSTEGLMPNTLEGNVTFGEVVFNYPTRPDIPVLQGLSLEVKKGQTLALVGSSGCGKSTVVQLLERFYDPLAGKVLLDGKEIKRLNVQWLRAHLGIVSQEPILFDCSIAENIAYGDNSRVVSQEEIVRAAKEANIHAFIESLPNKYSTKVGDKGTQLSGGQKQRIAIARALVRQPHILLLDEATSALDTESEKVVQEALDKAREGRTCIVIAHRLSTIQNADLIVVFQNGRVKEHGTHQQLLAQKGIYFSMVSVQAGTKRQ
UniProt P05177, whole entry: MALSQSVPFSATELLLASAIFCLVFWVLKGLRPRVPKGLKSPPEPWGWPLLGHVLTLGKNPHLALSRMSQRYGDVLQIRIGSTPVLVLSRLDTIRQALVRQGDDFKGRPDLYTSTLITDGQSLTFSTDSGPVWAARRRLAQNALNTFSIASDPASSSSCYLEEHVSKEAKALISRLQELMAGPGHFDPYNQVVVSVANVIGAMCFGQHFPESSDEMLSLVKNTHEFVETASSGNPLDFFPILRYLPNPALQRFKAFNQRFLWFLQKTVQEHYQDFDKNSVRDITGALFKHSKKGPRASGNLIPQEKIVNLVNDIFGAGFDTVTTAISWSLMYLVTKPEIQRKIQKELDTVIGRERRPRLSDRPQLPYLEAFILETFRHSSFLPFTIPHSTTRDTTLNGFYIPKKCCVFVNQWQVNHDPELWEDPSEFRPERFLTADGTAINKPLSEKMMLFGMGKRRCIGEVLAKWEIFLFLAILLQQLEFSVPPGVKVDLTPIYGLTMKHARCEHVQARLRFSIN
UniProt Q9H1R3, whole entry: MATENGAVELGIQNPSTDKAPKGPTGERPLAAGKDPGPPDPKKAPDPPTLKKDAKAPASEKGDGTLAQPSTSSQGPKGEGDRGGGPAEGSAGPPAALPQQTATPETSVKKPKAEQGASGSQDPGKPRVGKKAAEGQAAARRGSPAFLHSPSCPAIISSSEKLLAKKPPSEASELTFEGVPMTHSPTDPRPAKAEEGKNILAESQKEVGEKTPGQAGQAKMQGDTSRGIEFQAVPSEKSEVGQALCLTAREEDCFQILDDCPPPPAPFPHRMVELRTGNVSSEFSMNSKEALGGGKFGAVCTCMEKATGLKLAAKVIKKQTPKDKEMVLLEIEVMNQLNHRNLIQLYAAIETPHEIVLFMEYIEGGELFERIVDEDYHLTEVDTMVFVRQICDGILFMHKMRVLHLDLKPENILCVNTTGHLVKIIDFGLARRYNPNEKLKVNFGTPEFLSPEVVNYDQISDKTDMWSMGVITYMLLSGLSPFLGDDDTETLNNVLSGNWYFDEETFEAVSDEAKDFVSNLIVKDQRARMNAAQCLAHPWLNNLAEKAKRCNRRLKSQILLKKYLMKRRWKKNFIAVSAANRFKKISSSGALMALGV

| Molecule | tested on | assay | test system | conditions | scale | endpoint | value |
| --- | --- | --- | --- | --- | --- | --- | --- |
| Oc1ccc(C2NCCc3c2[nH]c2ccc(Cl)cc32)cc1O (centres unmarked) | – | dynamic light scattering | assay buffer | 40 µM, with Tween 20 | – | particle size | 8.3 nm |
| N#Cc1c(-c2ccc(-c3no[n+]([O-])c3C#N)s2)no[n+]1[O-] | KCNH2 (Homo sapiens, UniProt Q12809) | potassium current, automated patch clamp | HEK293, hERG-transfected | 10 µM | – | inhibition | 83.9% |
| CO[C@]12CC[C@@]3(C[C@@H]1C(C)(C)O)[C@H]1Cc4ccc(O)c5c4[C@@]3(CCN1CC1CC1)[C@H]2O5 | ABCB1 (Homo sapiens, UniProt P08183) | P-gp ATPase activity | – | 5 µM, 40 min | relative to: basal activity, negative means inhibition | fold stimulation | -0.59 ± 0.77 fold |
| O=[N+]([O-])c1cc2c(ccc3c4cc([N+](=O)[O-])oc4ccc23)o1 | Vero | ATP | – | 72 h | – | CC50 | 21.5 µg/mL |
| O=C(Nc1ccccc1)c1cc([N+](=O)[O-])ccc1Cl | Salmonella typhimurium | Ames plate incorporation | TA100 | 15 µg/plate, without metabolic activation | – | revertants | 388 ± 32 revertants/plate |
| Cc1ccc(CCNC(=O)c2cnn3c(O)c(Cc4cc(C)ccc4C)c(C)nc23)cc1 | – | dynamic light scattering | assay buffer | 40 µM, with Tween 20 | – | particle size | 7.1 nm |
| CO[C@]12CC[C@@]3(C[C@@H]1C(C)(C)O)[C@H]1Cc4ccc(O)c5c4[C@@]3(CCN1CC1CC1)[C@H]2O5 | Cytochrome P450 1A2 (CYP1A2, Homo sapiens, UniProt P05177) | – | human liver microsomes | 10 µM | – | inhibition | 6% |
| CC(=O)N1C[C@@H](COP(=O)(N(C)C)N2C[C@@H](COP(=O)(N(C)C)N3C[C@@H](COP(=O)(N(C)C)N4C[C@@H](COP(=O)(N(C)C)N5C[C@@H](COP(=O)(N(C)C)N6C[C@@H](COP(=O)(N(C)C)N7C[C@@H](COP(=O)(N(C)C)N8C[C@@H](COP(=O)(N(C)C)N9C[C@@H](COP(=O)(N(C)C)N%10C[C@@H](COP(=O)(N(C)C)N%11C[C@@H](COP(=O)(N(C)C)N%12C[C@@H](COP(=O)(N(C)C)N%13C[C@@H](COP(=O)(N(C)C)N%14C[C@@H](COP(=O)(N(C)C)N%15C[C@@H](COP(=O)(N(C)C)N%16C[C@@H](COP(=O)(N(C)C)N%17C[C@@H](COP(=O)(N(C)C)N%18C[C@@H](COP(=O)(N(C)C)N%19C[C@@H](COP(=O)(N(C)C)N%20C[C@@H](COP(=O)(N(C)C)N%21C[C@@H](COP(=O)(N(C)C)N%22C[C@@H](COP(=O)(N(C)C)N%23C[C@@H](COP(=O)(N(C)C)N%24CCN(C(=O)CCCN%25C(=O)CC(SC[C@H](NC(=O)[C@H](CCCNC(=N)N)NC(=O)[C@H](CCCNC(=N)N)NC(=O)[C@H](CCCNC(=N)N)NC(=O)[C@H](CCCNC(=N)N)NC(=O)[C@H](Cc%26ccccc%26)NC(=O)[C@H](Cc%26ccccc%26)NC(=O)[C@H](CCCNC(=N)N)NC(=O)[C@H](CCCNC(=N)N)NC(=O)[C@H](CCCNC(=N)N)NC(=O)[C@H](CCCNC(=N)N)NC(=O)[C@@H](N)CCCNC(=N)N)C(N)=O)C%25=O)CC%24)O[C@@H](n%24cnc%25c(=O)[nH]c(N)nc%25%24)C%23)O[C@@H](n%23cc(C)c(=O)[nH]c%23=O)C%22)O[C@@H](n%22ccc(N)nc%22=O)C%21)O[C@@H](n%21cnc%22c(N)ncnc%22%21)C%20)O[C@@H](n%20cc(C)c(=O)[nH]c%20=O)C%19)O[C@@H](n%19ccc(N)nc%19=O)C%18)O[C@@H](n%18cc(C)c(=O)[nH]c%18=O)C%17)O[C@@H](n%17cc(C)c(=O)[nH]c%17=O)C%16)O[C@@H](n%16cnc%17c(=O)[nH]c(N)nc%17%16)C%15)O[C@@H](n%15ccc(N)nc%15=O)C%14)O[C@@H](n%14cnc%15c(=O)[nH]c(N)nc%15%14)C%13)O[C@@H](n%13ccc(N)nc%13=O)C%12)O[C@@H](n%12ccc(N)nc%12=O)C%11)O[C@@H](n%11cnc%12c(N)ncnc%12%11)C%10)O[C@@H](n%10cc(C)c(=O)[nH]c%10=O)C9)O[C@@H](n9cc(C)c(=O)[nH]c9=O)C8)O[C@@H](n8cc(C)c(=O)[nH]c8=O)C7)O[C@@H](n7cc(C)c(=O)[nH]c7=O)C6)O[C@@H](n6cc(C)c(=O)[nH]c6=O)C5)O[C@@H](n5cnc6c(=O)[nH]c(N)nc65)C4)O[C@@H](n4cc(C)c(=O)[nH]c4=O)C3)O[C@@H](n3cnc4c(=O)[nH]c(N)nc43)C2)O[C@@H](n2cnc3c(=O)[nH]c(N)nc32)C1 (some centres unmarked) | BCBL1 cells | – | – | 16 µM, 4 h | – | cell mortality | ~5% |
| COc1cc(OC)c2ccccc2c1C=C1C(=O)NC(=S)NC1=O | – | – | C57BL/6 mouse | intraperitoneal, dose not given, over two weeks daily | – | body weight loss | ≤ 10% |
| zidovudine | CCRF-CEM | cytotoxicity | – | – | – | CC50 | 14.3 µM |
| Cc1ccc2nc(N3CCN(C(=O)Cc4ccccc4)CC3)sc2c1 | ALB | binding, fluorescence quenching | – | pH 7.4 | – | IC50 | 40.1 µM |
| COc1ccc(Nc2cc(C)c3cc(NC(=O)c4ccc(N(C)C)cc4)ccc3n2)cc1 | – | dynamic light scattering | assay buffer | 40 µM, without Tween 20 | – | particle size | 0.7 nm |
| CC[C@H](C)[C@H](NC(=O)[C@H](Cc1ccc(O)cc1)NC(=O)[C@H](CO)NC(=O)[C@H](CCC(=O)O)NC(=O)[C@H](CCC(=O)O)NC(=O)[C@H](CC(C)C)NC(=O)[C@H](CCCCN)NC(=O)[C@H](CCCCN)NC(=O)[C@@H](NC(=O)[C@@H](NC(=O)[C@H](CCC(=O)O)NC(=O)[C@H](CCC(=O)O)NC(=O)[C@H](CC(C)C)NC(=O)[C@H](CCCCN)NC(=O)[C@H](CCCCN)NC(=O)[C@H](CCSC)NC(=O)[C@H](CCC(=O)O)NC(=O)[C@H](Cc1ccc(O)cc1)NC(=O)[C@H](CCC(=O)O)NC(=O)[C@H](CC(C)C)NC(=O)[C@H](CC(=O)O)NC(=O)[C@H](CC(C)C)NC(=O)[C@H](CC(C)C)NC(=O)[C@@H](NC(=O)[C@@H](NC(=O)[C@H](CC(N)=O)NC(=O)[C@@H](NC(=O)[C@H](CCC(N)=O)NC(=O)[C@@H](NC(=O)[C@H](CC(C)C)NC(=O)[C@H](CO)NC(C)=O)[C@@H](C)O)[C@@H](C)CC)[C@@H](C)O)[C@@H](C)O)C(C)C)C(C)C)C(=O)N[C@@H](CC(=O)O)C(=O)N[C@@H](CC(C)C)C(=O)N[C@@H](CCCCN)C(=O)N[C@@H](CCC(=O)O)C(=O)N[C@@H](CC(C)C)C(N)=O | Huh-7 | cytotoxicity | – | 48 h | – | CC50 | > 100 µM |
| CC#C/C(=N\OC[C@H]1COCCN1)c1ccc2ncnc(Nc3ccc(OCc4cccc(F)c4)c(Cl)c3)c2c1 | – | – | nude mouse | oral | – | clinically relevant dose | 50 to 100 mg/kg |
| CCCCCCCCCCCCCC(=S)NCCCC[C@H](NC(=O)OCc1ccccc1)C(=O)Nc1cccc(O)c1 | HME1 | cell growth | – | normal cells K-Ras wild type | – | GI50 | 11 ± 4 µM |
| O=C(Nc1nc(-c2ccc3ccccc3c2)cs1)c1cccs1 | ALB | binding, fluorescence quenching | – | pH 7.4 | – | IC50 | 12.7 µM |
| CSCC[C@@H](C=O)NC(=O)[C@H](CC(C)C)NC(=O)[C@H](CC(C)C)NC(C)=O | A549 | neutral red uptake | – | 48 h | – | CC50 | > 100 µM |
| CCOC(=O)OCOc1c(-c2ccc(Oc3ccc(OC(F)(F)F)cc3)cc2)c(C)nc2cc(OC)c(Cl)cc12 | HepG2 | ATP production | – | 72 h, galactose medium | – | highest non-toxic concentration | ≥ 25 µM |
| CCOc1ccc2cc(-c3nn(CC4CCN(C)CC4)c4ncnc(N)c34)ccc2n1 | – | – | – | concentration not given, monkey | – | half-life | > 2 h |
| CC[C@@H](C(N)=O)N1CCCC1=O | – | LC-MS/MS | rat, control, whole blood | oral, 50 mg/kg levetiracetam, together with: atropine 5 mg/kg | – | Cmax | 29500 ng/mL |
| COc1ccc(C[C@@H](C)NC[C@H](O)c2ccc(O)c(NC=O)c2)cc1 | RD | cytotoxicity | – | 72 h | – | CC50 | 146 ± 27.8 µM |
| C[C@H](Cc1ccc(O)c(O)c1)[C@@H](C)Cc1ccc(O)c(O)c1 | – | – | human skin | 3% w/v solution, 8 h, no UV exposure | – | amount in epidermis | 12.3 ± 1.87 µg |
| C=C[C@@H]1[C@H]2CCC[C@]1(c1cccc(O)c1)CCN2CCc1ccccc1 | – | – | human cytosol 2 mg/mL | 1 µM, pH 7.4 | – | half-life | > 2 h |
| CCN1CCN(Cc2ccc(NC(=O)c3ccc(C)c(/C=C/c4cnc5[nH]ccc5c4OC)c3)cc2C(F)(F)F)CC1 | MYLK2 (Homo sapiens, UniProt Q9H1R3) | inhibitor | – | 5 µM | relative to: no inhibitor | log2 fold change | -1.21 |
| COc1ccc2[nH]cc(CCNC(=O)[C@H](Cc3ccncc3)NC(=O)[C@H](Cc3ccc(Cl)cc3)NC(=O)[C@H](Cc3c[nH]c4ccc(O)cc34)NC(=O)CCCN)c2c1 | – | – | SOD1(G93A) mice | intraperitoneal, 30 mg/kg daily, several weeks | – | toxicity | not toxic |
| O=C(COc1ccccc1Cl)N1CCN(c2ccc3nncn3n2)CC1 | ALB | binding, fluorescence quenching | – | pH 7.4 | – | IC50 | > 100 µM |
